Results gathered from unrelated publications.
Every numbered part comes from another study and shows a few of its results, in no order. Positions count from the first letter of the parent shown.

Sample 1
Target: Prothrombin, mature alpha-thrombin (F2, Homo sapiens, UniProt P00734)
Technique: aptamer microarray, sandwich
Form: DNA with 2'F-ANA
Matrix: in vitro
Concentration: 200 nM
Notes: whole 15-mer aptamer, many near background
Together with: Cy3 exosite-II aptamer, 400 nM
Reading: higher = stronger binding
Measurement: mean fluorescence intensity
Sequence: GGTTGGTGTGGTTGG
2'F-ANA at 2 3 10 12 13 15: 403 a.u.
2'F-ANA at 1 3 4 7 8 9 13 14: 68.4 a.u.
2'F-ANA at 2 3 4 5 8 9 12 13 14 15: 50.2 a.u.
2'F-ANA at 2 5 8 10 11: 50.9 a.u.
2'F-ANA at 1 4 6 8 9 11 13 14 15: 66.4 a.u.
2'F-ANA at 1 3 6 7 9 10 15: 81.4 a.u.
2'F-ANA at 3 6 7 8 9 11 14: 511 a.u.
2'F-ANA at 2 6 13 15: 314 a.u.
2'F-ANA at 4 6 12 14: 142 a.u.
2'F-ANA at 2 3 4 5 9 10 12: 62.3 a.u.
2'F-ANA at 2 3 4 6 9: 517 a.u.
2'F-ANA at 2 3 4 7 11 14: 336 a.u.
2'F-ANA at 2 3 4 8 9 10 11 13 15: 161 a.u.
2'F-ANA at 2 3 5 9 13: 69.4 a.u.
2'F-ANA at 3 4 6 8 11 13 15: 434 a.u.
2'F-ANA at 1 6 7 8 10 11 13 15: 53.4 a.u.
2'F-ANA at 2 4 8 10 12: 136 a.u.
2'F-ANA at 4 5 8 9 12 13 15: 78 a.u.
2'F-ANA at 3 4 5 6 7 8 9 10 11 12 14: 51 a.u.
2'F-ANA at 2 5 6 7 8 9 11 13: 56.6 a.u.
2'F-ANA at 1 2 3 4 6 9 11 12 13 15: 172 a.u.
2'F-ANA at 2 3 5 6 9 11 14: 49 a.u.
2'F-ANA at 1 2 5 6 7 10 12 13 15: 46.1 a.u.
2'F-ANA at 1 3 5 9 10 12 13: 46.3 a.u.
2'F-ANA at 1 2 7 12 13 14: 67.8 a.u.

Sample 2
Target: Fragile X messenger ribonucleoprotein 1, C-terminal low-complexity region (Fmr1, Mus musculus, UniProt P35922)
Technique: RNA Bind-n-Seq
Form: RNA
Matrix: in vitro
Concentration: 200 nM
Notes: whole 134-nt RNA, ends assumed
Together with: 150 mM LiCl
Reference: input library
Reading: higher = stronger binding
Measurement: log2 enrichment
Library: 7-deaza-guanosine replaces G
Constant ends, left off below: GGGAGUUCUACAGUCCGACGAUC … UGGAAUUCUCGGGUGUCAAGG
AGUCCUGUGCUACACAUCGUAUGUACCGAAUCGGGGCCCCGGGGCCCCGGGCCCCGGAAAGUAUUAUGUUACGCCGUUCGGAUCUGCACU: 0.455
GAUGAGACAGAUGCUUCAUCAGCAGUGAAAGUGAAAAGAGCAGUCCAGAAAACAUCCGAUUUAAUAGUGUUGGGUCUCCCAUGGAAAACA: -1.12
AGUCCUGUGCUACACAUCGUAUGUACCGAAUCGGGUGGGAAAAAGGGAAAAAAAGGGAAAGUAUUAUGUUACGCCGUUCGGAUCUGCACU: -0.545
UCCUGUGCUACACAUCGUAUGUACCGAAUCGGGGAAAAAGGGGUGGGGUUUUUUUGGGGAAAGUAUUAUGUUACGCCGUUCGGAUCUGCA: -1.75
UCCUGUGCUACACAUCGUAUGUACCGAAUCGGUUUUUUGGGUUUUUUGGGUUUUUUGGGGAAAGUAUUAUGUUACGCCGUUCGGAUCUGC: -1.31
GUCCUGUGCUACACAUCGUAUGUACCGAAUCGGGGAAAAAGGAAAAAGGGGAAAAAGGGAAAGUAUUAUGUUACGCCGUUCGGAUCUGCA: 0.521
AAGUCCUGUGCUACACAUCGUAUGUACCGAAUCGGGGCCCGGGCCCGGGGCCCGGGAAAGUAUUAUGUUACGCCGUUCGGAUCUGCACUU: -2.6
UUUCCAGCAGUACCAGCUCCAGCCAGGAUCACCCUCUCUACUCUGGGCACCCAUCCCUUCCACUAAGUGGUGCUAUUGCUGCUUUUGCCU: 1.62
UGGCCCUGGUGGCAUGCGGGGCGGAAGAGGUGGCCUCAUGGAUCGUGGUGGUCCCGGUGGAAUGUUCAGAGGUGGCCGUGGUGGAGACAG: 0.379
UAACUUUAGAGGAGGAUCUGAUGGAUAUGGCAGUGGACGUGGAUUUGGGGAUGGCUAUAAUGGGUAUGGAGGAGGCCCUGGAGGUGGCAA: 0.382
UGGGUGAAGAGGGACAGUUACCUUCCUGUGGGCAGUCAUAAUCUCAAGGCGGCCGCCAAGGCCAAGCUAGGCUAUGAUCCCGUGGAGCUA: -1.38

Sample 3
Target: RNA binding protein fox-1 homolog 2, RRM domain, GST-SBP tag (RBFOX2, Homo sapiens, UniProt O43251-10, residues 100-194)
Technique: RNA Bind-n-Seq
Form: RNA
Matrix: in vitro
Concentration: 365 nM
Notes: natural RNA segment, single round, ends assumed
Reference: no-protein control
Reading: higher = stronger binding
Measurement: RBNS enrichment (R)
Constant ends, left off below: GGGAGUUCUACAGUCCGACGAUC … UGGAAUUCUCGGGUGCCAA
CUUCCCUGCCAGGUGCCUGUCACCUGUCUUCACUGCCUCCUUUUCCCUGUCAUGCUCAUCAGCUUAUGGCUUCUGUCUAAGCACCUGAACAGAGGACUGAAACCUCCACU: 0.596
CCCUGUGCUCCGUUCCUCAGCCGUUUGGACAGGGAGCUCCGCUGUCACCAAGGAGCCCAUGUGAGACACACUGCUGUGACUGCCUCUUGUUAAUGUCAGCAUCACCUCAU: 0.682
CACGGCACGCAGCCAGCAAGUUGUUUUUAAAUGUUAAUAUAGAAAACAGUGAAGGAUUAGCUGAAAAUAUAUGAGCAGGUGACAUUGAGGUUUACUGAAAUAGCCAAUUU: 0.509
GUACAUUUGUAAAUACUCAGUUUUGUAUUGUAUGUAUAUGAUUGCUAUUCUCAGAGGUUUGGACUUUCGUAUUGUAAUUAGCUCUGUUGGCAUGGUGACUUGUCACUCCU: 5.61
UAAAUUCUCAGGUCAGAACAUAACAUUUCUCAUUUGUUAAAAGCAGCAAGAAGCCUGGUAAAACUGUGACUUUUCCCCAAACGUCAAUCUUUAUUAGAAAGCAUUUUCUA: 0.525
UUAAUUGUUUGCUUUGGACAUGUGGAAAGAGCCUUACUAAUAAAAUUGAUUUUGCUUAUGAAUUAAAGCCCCUUUUUGCACAUGUAUUGUACGACUGGAGUCGUUGGGUU: 5.18
GGAGCAUAGCAUGUGGGUUUCUUUGUAGGAGGGCACUUAGGUCCCUUGCACACAGCCAUUCCCUAGCGCAAAGGUGCUGGUCACACUGCUUACUGAGGCGCUGAAGAGGC: 1.86
GAGUUAGCAUCUUUAUUUUUGUAUCAAAGAUAAAGGUUAUUUUGAAAAUUAUUAGGGUUUUUACAUAACUCUGGAAUCUGUUGCUUUUAUAAACAAAUUGUUCAAUUUUA: 0.907
AGCUUGGGGUGUGACUGUGGGGAGGACUCCAUCCACCUCAUCACUGGACUGCAUGGGGAGGCAGCAGAGCGGGGUCCCCUCUGUGCUUCGACUACUGCUCCUGUGGCAGG: 1.23
UCUUCUGGGAACCCUGCCCACUCCCAGGACCAAGAUUGGCCUGAGGCUGCACUAAAAUUCACUUAGGGUCGAGCAUCCUGUUUGCUGAUAAAUAUUAAGGAGAAUUCAUG: 1.02
CCCCUGACCACCCUACCUUUUUGCAUCAAACACUGGGAAUGCUUCCUCAGUCCCUGCUCCAAACUAUGAAGCUCACCCUUCAUUUUUCCUCCCUGCUAUUGUGGACCUAA: 1.78
GCAAGAAACAGUGUGAGCUACUGCCACGCUGAAAACUACCUGUGGGUUAAGGAUGUAGUUCCUUUGUAAGGGUGGGCAGGCCUCGUAAGAAAGAUGUAGCAGCAUAUUCA: 2.79

Sample 4
Target: CREM, bZIP domain (human)
Technique: DHFR protein complementation
Matrix: yeast
Notes: single substitutions, most at no-binding floor
Reference: wild-type JUN-FOS pair
Reading: higher = stronger binding
Measurement: binding fitness
Starting sequence: JUN, bZIP domain (human); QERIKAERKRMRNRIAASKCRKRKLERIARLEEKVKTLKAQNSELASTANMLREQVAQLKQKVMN; partner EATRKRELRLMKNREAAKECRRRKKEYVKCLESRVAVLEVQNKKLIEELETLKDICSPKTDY
S47T: -1.47 natural log
V56G: -1.47 natural log
A40C: -1.49 natural log
N42G: -1.49 natural log
E33H: -1.54 natural log
K34G: -1.2 natural log
L31R: -1.52 natural log
M51E: -1.27 natural log
A49W: -1.5 natural log
S43H: -1.47 natural log
L31K: -1.52 natural log
A40S: -1.55 natural log
I28G: -1.47 natural log
L45E: -1.4 natural log
A29I: -1.33 natural log
T48E: -1.24 natural log

Sample 5
Target: CCNA2, cyclin fold, Cln2 fusion (human)
Technique: yeast growth competition, sequencing
Matrix: yeast
Notes: weak parent motif
Reference: not given
Reading: higher = stronger binding
Measurement: normalised enrichment score
Starting sequence: SLBP docking peptide (human); ARYKRKLLINDFG
L8A: 1.39
K6A: 2
G13C: 0.925
A1H: 1.33
L7G: 1.86
L8D: 0.182
D11H: 1.69
G13T: 1.28
N10K: 1.67
R5C: 2.04
N10M: 1.28
Y3M: 1.54
L7Y: 1.2
Y3Q: 0.69
I9T: 0.841
R2F: 1.17
L7I: -0.00511
N10W: 2.68
D11M: 2.73
G13M: 2.45
Y3A: 2.56
L7E: 0.145
K6D: 0.641

Repeated from above (sample 2):
UCCUGUGCUACACAUCGUAUGUACCGAAUCGGGGAAAAAGGGGUGGGGUUUUUUUGGGGAAAGUAUUAUGUUACGCCGUUCGGAUCUGCA: -1.75
UGGGUGAAGAGGGACAGUUACCUUCCUGUGGGCAGUCAUAAUCUCAAGGCGGCCGCCAAGGCCAAGCUAGGCUAUGAUCCCGUGGAGCUA: -1.38
UUUCCAGCAGUACCAGCUCCAGCCAGGAUCACCCUCUCUACUCUGGGCACCCAUCCCUUCCACUAAGUGGUGCUAUUGCUGCUUUUGCCU: 1.62
UGGCCCUGGUGGCAUGCGGGGCGGAAGAGGUGGCCUCAUGGAUCGUGGUGGUCCCGGUGGAAUGUUCAGAGGUGGCCGUGGUGGAGACAG: 0.379
AGUCCUGUGCUACACAUCGUAUGUACCGAAUCGGGUGGGAAAAAGGGAAAAAAAGGGAAAGUAUUAUGUUACGCCGUUCGGAUCUGCACU: -0.545
UAACUUUAGAGGAGGAUCUGAUGGAUAUGGCAGUGGACGUGGAUUUGGGGAUGGCUAUAAUGGGUAUGGAGGAGGCCCUGGAGGUGGCAA: 0.382
AGUCCUGUGCUACACAUCGUAUGUACCGAAUCGGGGCCCCGGGGCCCCGGGCCCCGGAAAGUAUUAUGUUACGCCGUUCGGAUCUGCACU: 0.455
AAGUCCUGUGCUACACAUCGUAUGUACCGAAUCGGGGCCCGGGCCCGGGGCCCGGGAAAGUAUUAUGUUACGCCGUUCGGAUCUGCACUU: -2.6
GAUGAGACAGAUGCUUCAUCAGCAGUGAAAGUGAAAAGAGCAGUCCAGAAAACAUCCGAUUUAAUAGUGUUGGGUCUCCCAUGGAAAACA: -1.12
GUCCUGUGCUACACAUCGUAUGUACCGAAUCGGGGAAAAAGGAAAAAGGGGAAAAAGGGAAAGUAUUAUGUUACGCCGUUCGGAUCUGCA: 0.521
UCCUGUGCUACACAUCGUAUGUACCGAAUCGGUUUUUUGGGUUUUUUGGGUUUUUUGGGGAAAGUAUUAUGUUACGCCGUUCGGAUCUGC: -1.31
